# Measurements gathered from unrelated publications.
# Each numbered part is a random draw from the data of one study; scales do not carry over between parts.

# Set 1
# Target: RING finger protein unkempt homolog, zinc fingers 1-6, GST-SBP tag (UNK, Homo sapiens, UniProt Q9C0B0, residues 30-357)
# Chain of UniProt Q9C0B0 (30-357, looked up): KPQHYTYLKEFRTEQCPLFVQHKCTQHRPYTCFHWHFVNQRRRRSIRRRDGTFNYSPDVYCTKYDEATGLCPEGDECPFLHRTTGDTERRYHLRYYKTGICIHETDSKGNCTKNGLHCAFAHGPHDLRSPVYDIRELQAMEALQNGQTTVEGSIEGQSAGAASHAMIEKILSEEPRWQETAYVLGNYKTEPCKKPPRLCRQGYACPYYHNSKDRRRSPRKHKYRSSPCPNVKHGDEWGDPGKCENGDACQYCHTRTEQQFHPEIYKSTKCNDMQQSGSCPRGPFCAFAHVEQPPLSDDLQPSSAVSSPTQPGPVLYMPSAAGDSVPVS
# Technique: RNA Bind-n-Seq
# Molecule type: RNA
# Medium: in vitro
# Tested at: not given
# Setting: RNA with constant flanks, human and mouse sites, ends assumed
# Reference: input RNA pool
# Direction: higher = stronger binding
# All sequences stand within: GGGAGUUCUACAGUCCGACGAUC … CAACAGAGGAUUGAGCAUCA
Oligonucleotide,bound/input enrichment [ratio]
GAAGGCAGCAAAAGGCACAGGUCAAGAAGCAGGUCACGAUCUCGGACCAGAAGUUCCUCUAGGUCCCGUAGCCGAUCCCGUUCACGAAGGAGCAAGUCUUACAGCCGAUCAAGGAGCAGG,0.156
GGAGUAAAGGAUGUAGAUGAUUUCUUUGAGCACGAACGAACAUUUCUUUUGGAGUAUCAUAACCGAGUUAAGGAUGCAUCUGCUAAAUCUGAUAGAAUGACAAGAUCCCACAAAAGUGCU,0.147
AUGGACCAUCUUCCUAGGAACUCCCAAGUAAACUAUUUCAGGACAUGUAUCUGCUGAAAUGUAUUUUAUUUUCAAGGUGGAGGGGAAAAUCGUCUGUUUCCUAAAUCCUGUUUAGGAUCU,0.195
AGUAUUAUUUAGUGAAUUAAUCUGACCGUACAGAAGAGUCAUGUUCUGACCUCAAUACUAUAGUAACUUUUAGGCUUGGAAAUAAAAGUUUGUUGGUAUCUACUGGCAAGUAUUUAAGUU,1.61
ACCAGCUAUGGUUUGCCACAAGCCAGGAGGAUAUCACUGGCCACUCCUCGACAGCUGUAUAAGUCUUCCAAUAUGACUCAGCGCUGGCAAAGAAGGGAAAUCUCCAACUUUGAGUAUUUG,0.105

# Set 2
# Target: RNA binding protein fox-1 homolog 2, RRM domain, GST-SBP tag (RBFOX2, Homo sapiens, UniProt O43251-10, residues 100-194)
# Technique: RNA Bind-n-Seq
# Molecule type: RNA
# Medium: in vitro
# Tested at: 365 nM
# Setting: natural RNA segment, single round, ends assumed
# Reference: no-protein control
# Direction: higher = stronger binding
# All sequences stand within: GGGAGUUCUACAGUCCGACGAUC … UGGAAUUCUCGGGUGCCAA
# Residues (chain): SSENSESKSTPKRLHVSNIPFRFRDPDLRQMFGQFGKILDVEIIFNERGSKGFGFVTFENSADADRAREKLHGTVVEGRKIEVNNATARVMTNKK
Oligonucleotide,RBNS enrichment (R)
GUUACAGGGCUAAGUUAAAGCCAGACUUUAAAGUUCUGUCACGGUGGUAAGGAAAGAAACAGGAGGUGCUAGAGGAACCAAGAGUUCUGGUCAUUAACUCAGUCAUGCCG,0.7
UCUAGACAGUAGACAAGGACCCUUCUACUGAACCUCCAAGGAAAAGAAGAAGGAAAAGAAGAAGUGCUUUUCAAAUCUUUCAAAGGGCUACAUGUAACCAUCUGGAAUGA,0.366
GAAGACAGCUUGCCUUUGUGUUCCUAUGAAGACUGUCCCCAACCUUGGACGUGUCCCCUUUAUUUCAUGAGCCUUUCCCCGUUUGGGUUAAGAAGCUGUUAUGCUGUGGG,2.49
GUUGGAGGCCAUGUAUUAUUUCAGUUCAACUGGAUGAAAUGUUAAAUAAACUCAGAAUGAAAAUAAAUUCUCUCUUUUAUUUGUACAUAAAGGAUAAAGCAGUUUGUGUG,0.532
CACGGAGAGAAGGCCCAUACCUUCUGGUUGCUUCAGACCUGACACCGUCCCUCAGUGAUACGUACAGCCAAAAAGGACCAACUGGCUUCUGUGCACUAGCCUGUGAUUAA,0.61
ACAAUAAGAAACAUACUCUCCAUAGUGCCAAGGCUACACAGAAACCCUGCCUCAAAAAAACAAGCAAAGCCGGGCGUGGUGGCGCACGCCUUUAAUCCCAGCACUUGGGA,0.408
UUUAAGGCAAUUGAAGACACGCAACCUCAGGUAUCCCGCUUUAUAUCGAUAGCUCCUCCCCCGGGAGACAGAGAGUCGCUCUGGUGGAUCAGUGUACAGAUUGUAUAUAG,0.338
AGUGGGUCUGCUUCACUGUGGAAGGAGAAACUGUGACUUUCUGGUUGCAUUACUGCAAAACAGCAAAAACCGAAUAACCCGAGCCCUGCUGCUUUCUGAGCCCUGGGCCU,0.243
CAUGGGAAUGGUUUUGAGGACCUGGAUGAGGAAGAAGGCGUGGCAUCCUCCUGGCUUCUUACAGAAGAACUGUUGCAGAGUUCACAGCACAGAUGGGCAGAGAUGGUCCC,0.992

# Set 3
# Target: Sal-like protein 4, full length isoform A (SALL4, Homo sapiens, UniProt Q9UJQ4, residues 1-1053)
# Chain of UniProt Q9UJQ4 (whole entry, looked up): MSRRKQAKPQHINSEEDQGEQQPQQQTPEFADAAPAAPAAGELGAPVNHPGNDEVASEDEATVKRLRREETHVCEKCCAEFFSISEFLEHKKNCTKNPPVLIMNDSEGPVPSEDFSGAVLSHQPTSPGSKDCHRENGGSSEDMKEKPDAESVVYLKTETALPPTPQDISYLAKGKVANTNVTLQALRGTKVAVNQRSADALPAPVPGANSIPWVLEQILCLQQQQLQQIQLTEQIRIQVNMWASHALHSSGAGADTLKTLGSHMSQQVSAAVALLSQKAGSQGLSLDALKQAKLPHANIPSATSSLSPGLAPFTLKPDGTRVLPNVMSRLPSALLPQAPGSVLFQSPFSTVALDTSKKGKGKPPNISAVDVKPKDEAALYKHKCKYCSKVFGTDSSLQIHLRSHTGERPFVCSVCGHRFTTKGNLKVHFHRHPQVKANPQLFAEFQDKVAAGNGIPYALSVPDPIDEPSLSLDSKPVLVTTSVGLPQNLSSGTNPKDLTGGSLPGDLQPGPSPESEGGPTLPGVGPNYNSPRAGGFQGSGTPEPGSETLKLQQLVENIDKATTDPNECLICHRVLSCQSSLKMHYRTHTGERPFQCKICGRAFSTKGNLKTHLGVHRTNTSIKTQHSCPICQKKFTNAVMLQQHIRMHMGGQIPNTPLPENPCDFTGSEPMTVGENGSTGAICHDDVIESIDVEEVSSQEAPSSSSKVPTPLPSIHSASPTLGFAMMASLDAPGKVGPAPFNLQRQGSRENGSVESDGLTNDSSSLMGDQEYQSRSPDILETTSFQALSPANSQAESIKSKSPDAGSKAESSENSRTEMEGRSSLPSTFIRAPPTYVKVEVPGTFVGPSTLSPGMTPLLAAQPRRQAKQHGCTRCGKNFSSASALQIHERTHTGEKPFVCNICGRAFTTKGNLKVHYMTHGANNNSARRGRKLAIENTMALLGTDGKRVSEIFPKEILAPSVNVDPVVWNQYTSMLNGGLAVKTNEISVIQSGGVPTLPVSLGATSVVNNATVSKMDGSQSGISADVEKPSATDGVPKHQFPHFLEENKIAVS
# Technique: universal PBM
# Molecule type: double-stranded DNA, one strand shown
# Medium: in vitro
# Tested at: 600 nM
# Setting: 8-mer, flanks averaged, mean of replicates
# Direction: higher = stronger binding
Oligonucleotide,E-score
GATACTGC,-0.0177
TCGCGTCA,0.00578
CAGCCAAC,-0.138
TAGCTGAA,0.107
AGTCTCGG,-0.284
CTGAGACC,-0.102
AGTACCAC,-0.0568
CTGCCTTC,-0.128

# Mixed results
Substance,target,assay,test system,conditions,scale,endpoint,result
"PhoQ, residues 284 288 289 292 302 303 SIHMAM","PhoP, residues 12 14 15 18 19 TPLRH (Escherichia coli, UniProt P23836)","Sort-seq, item: YFP reporter",E. coli,"PhoQ-PhoP variant library, added: 10 µM Mg2+","reference: high Mg2+ state, higher = stronger signaling",fold induction,0.904

# Excerpt of the above (set 2):
Oligonucleotide,RBNS enrichment (R)
CAUGGGAAUGGUUUUGAGGACCUGGAUGAGGAAGAAGGCGUGGCAUCCUCCUGGCUUCUUACAGAAGAACUGUUGCAGAGUUCACAGCACAGAUGGGCAGAGAUGGUCCC,0.992
UCUAGACAGUAGACAAGGACCCUUCUACUGAACCUCCAAGGAAAAGAAGAAGGAAAAGAAGAAGUGCUUUUCAAAUCUUUCAAAGGGCUACAUGUAACCAUCUGGAAUGA,0.366
GAAGACAGCUUGCCUUUGUGUUCCUAUGAAGACUGUCCCCAACCUUGGACGUGUCCCCUUUAUUUCAUGAGCCUUUCCCCGUUUGGGUUAAGAAGCUGUUAUGCUGUGGG,2.49
